Measured values of several laboratories.
Each line is one published result; not all experiments were run side by side. ± gives the spread as reported.

| SMILES | assay | test system | conditions | how to read | endpoint | value |
| --- | --- | --- | --- | --- | --- | --- |
| CC[C@H](C)[C@H](NC(=O)[C@H](CCCNC(=N)N)NC(=O)[C@H](CCCCN)NC(=O)[C@H](CC(C)C)NC(=O)[C@H](Cc1c[nH]c2ccccc12)NC(=O)[C@H](Cc1c[nH]c2ccccc12)NC(=O)[C@@H](N)Cc1c[nH]c2ccccc12)C(=O)N[C@@H](Cc1c[nH]c2ccccc12)C(=O)O | haemolysis | human erythrocytes | 1 h, 50% haemolysis |  | LC50 | 30 µM |
| NCCc1c[nH]c2ccc(O)cc12 |  | human liver mitochondrial preparation | 1 µM, 30 min, 0.5 mg/mL protein |  | percent metabolized | 87% |
| O=C(O)CCCc1ccc(N(CCCl)CCCl)cc1 | cytochrome c release, ELISA | BALB/cByJ female mouse liver mitochondria | 30 min | baseline: alamethicin maximal release | EC20 | > 200 µM |
| [123I]c1cncc(OC[C@@H]2CCN2)c1 | SPECT | human, brain cortex | intravenous bolus plus infusion, 5.2 mCi | baseline: plasma | tissue/plasma ratio | 21.8 |
| CN[C@@](C)(C[18F])C(=O)O |  | SCID mouse DU-145 xenograft, spleen | 30 min, post injection |  | tissue uptake | 15 ± 5.4 %ID/g |
| O=c1[nH]c(Cc2ccccn2)nc2c1cnn2C1CCOCC1 |  | healthy men, extensive metabolizers, plasma | oral, 50 mg single dose, tablet, geometric mean |  | half-life | 83.4 min |
| CC(C)Nc1nc(Cl)nc(NC(C)C)n1 | LC-MS/MS | herbicide solution | 2 h, 40 °C, together with: 365 nm UV exposure |  | remaining amount | 57.4 ± 12.3% |
| CC[C@H](C)[C@H](NC(=O)[C@@H](N)CCCNC(=N)N)C(=O)N[C@H](C(=O)N1CCC[C@H]1C(=O)N[C@@H](C)C(N)=O)C(C)C |  | human, plasma | intravenous, 1 mg/kg, single dose, healthy volunteers |  | AUC(0-t) | 323 ng·h/mL |
| COc1ccc(C[C@@H]2NC(=O)[C@H]([C@@H](C)O)NC(=O)[C@@H]3[C@@H]4CCN3C(=O)[C@@H]3Cc5cn(c6ccc(F)cc56)CCCCCCN(Cc5ccc(cc5)CCNC(=O)[C@]5(C)CCCN5C2=O)C(=O)CCC(=O)N[C@@H](C)C(=O)N[C@H](CNC(=O)CCCCC[N+](C)(C)C)C(=O)N[C@@H](Cc2cccc(c2)CNC(=O)CO4)C(=O)N3)cc1 |  | fasted healthy humans, plasma | oral, 100 mg single dose, with 1800 mg Labrasol, geometric mean |  | Vz/F | 7040 L |
| CCN(CC)CCCC(C)Nc1ccnc2cc(Cl)ccc12 (stereo not shown) |  | male athymic BALB/c nude mice, xenograft, serum | intraperitoneal, 60 mg/kg every other day, 2 weeks, together with: sulforaphane 5 mg/kg |  | ALT activity | 6.27 ± 1.35 U/L |

Some of these lines once more:
| SMILES | assay | test system | conditions | how to read | endpoint | value |
| --- | --- | --- | --- | --- | --- | --- |
| CC(C)Nc1nc(Cl)nc(NC(C)C)n1 | LC-MS/MS | herbicide solution | 2 h, 40 °C, together with: 365 nm UV exposure |  | remaining amount | 57.4 ± 12.3% |
